Measured values collected from several papers.
Compare with care: the assays were run in different laboratories. Numbers after ± are the reported error.

The tissue uptake of `CC(C)[C@H](NC(=O)[C@@H]1CCCN1C(=O)[C@H](CCCNC(=N)N)NC(=O)[C@H](CS)NC(=O)[C@H](Cc1c[nH]c2ccccc12)NC(=O)[C@H](CCCNC(=N)N)NC(=O)[C@@H](Cc1ccccc1)NC(=O)[C@H](Cc1c[nH]cn1)NC(=O)[C@H](CCC(=O)O)NC(=O)[C@H](CS)NC(=O)[C@H](CS)NC(=O)[C@@H]1CC(=O)N[C@@H](CCCNC(=N)N)C(=O)NCC(=O)N[C@@H](CC(=O)O)C(=O)N[C@H](Cc2ccc(O)cc2)C(=O)N1)C(N)=O` [technetium-99m labelled] is reported as 1.66 ± 0.25 %ID/g (C57 mouse, female, B16/F1 melanoma, spleen; intravenous, 0.037 MBq, 0.5 h).
For `O=C([O-])CN1CCN(CC(=O)[O-])CCN(CC(=O)NCCc2ccc3c(c2)C2C=CCC2C(c2cc4c(cc2Br)OCO4)N3)CCN(CC(=O)[O-])CC1.[111In+3]` (centres unmarked), the tissue uptake was 0.61 ± 0.18 %ID/g (mouse, Hec50 endometrial tumour, stomach; 2 h post injection).
`CCCC[C@H](NC(=O)CNC(=O)CNC(=O)CN1CCN(CC(=O)O)CCN(CC(=O)O)CC1)C(=O)N[C@H]1CC(=O)NCCCC[C@@H](C(N)=O)NC(=O)[C@H](Cc2c[nH]c3ccccc23)NC(=O)[C@H](CCCNC(=N)N)NC(=O)[C@@H](Cc2ccccc2)NC(=O)[C@H](Cc2c[nH]cn2)NC1=O` [copper-64 labelled] has a tissue uptake of 0.17 ± 0.08 %ID/g (female C57 mouse, B16/F1 melanoma, spleen; intravenous, 0.037 MBq, 4 h).
`CC(C)[C@H](NC(=O)[C@@H]1CCCN1C(=O)[C@H](CCCNC(=N)N)NC(=O)[C@H](CS)NC(=O)[C@H](Cc1c[nH]c2ccccc12)NC(=O)[C@H](CCCNC(=N)N)NC(=O)[C@@H](Cc1ccccc1)NC(=O)[C@H](Cc1c[nH]cn1)NC(=O)[C@H](CCC(=O)O)NC(=O)[C@H](CS)NC(=O)[C@H](CS)NC(=O)CNC(=O)[C@@H]1CC(=O)N[C@@H](CCCNC(=N)N)C(=O)NCC(=O)N[C@@H](CC(=O)O)C(=O)N[C@H](Cc2ccc(O)cc2)C(=O)N1)C(N)=O` [technetium-99m labelled] has a tissue uptake of 2.52 ± 0.41 %ID/g (C57 mouse, female, B16/F1 melanoma, liver; intravenous, 0.037 MBq, 2 h).
`CCCC[C@H](NC(=O)CNC(=O)CNC(=O)CN1CCN(CC(=O)O)CCN(CC(=O)O)CCN(CC(=O)O)CC1)C(=O)N[C@H]1CC(=O)NCCCC[C@@H](C(N)=O)NC(=O)[C@H](Cc2c[nH]c3ccccc23)NC(=O)[C@H](CCCNC(=N)N)NC(=O)[C@@H](Cc2ccccc2)NC(=O)[C@H](Cc2c[nH]cn2)NC1=O` [copper-64 labelled] has a tissue uptake of 10.7 ± 1.68 %ID (C57 mouse female B16/F1 melanoma, intestines; intravenous, 0.037 MBq, 2 h).
`CN(C)c1ccc(-c2nc3ccc(OCCCCCN4CCN5CCN(CC4)CC(=O)[O][Al]([18F])[O]C(=O)C5)cc3s2)cc1` gave a tissue uptake of 4.12 ± 1.46 %ID/g (ICR mouse, heart; intravenous, 10 min).
`CN1C(=O)[C@@H](Cc2ccc(O)c(I)c2)NC(=O)CNC(=O)[C@H](Cc2ccc3ccccc3c2)NC(=O)[C@H](CCCNC(=N)N)NC(=O)[C@H]1CCCNC(=O)c1ccc(CNC(=O)CN2CCN(CC(=O)O)CCN(CC(=O)O)CCN(CC(=O)O)CC2)cc1` [lutetium-177 labelled] gave a tissue uptake of 0.17 ± 0.004 %ID/g (female CB-17 SCID mouse, Daudi xenograft, small intestine; intravenous, 6 h, CXCR4 blocking, with: AMD3100 2 mg/kg coinjected).
`CCCC[C@H](NC(=O)CNC(=O)CNC(=O)CN1CCN(CC(=O)O)CCN(CC(=O)O)CCN(CC(=O)O)CC1)C(=O)N[C@H]1CC(=O)NCCCC[C@@H](C(N)=O)NC(=O)[C@H](Cc2c[nH]c3ccccc23)NC(=O)[C@H](CCCNC(=N)N)NC(=O)[C@@H](Cc2ccccc2)NC(=O)[C@H](Cc2c[nH]cn2)NC1=O` [lead-203 labelled] has a tissue uptake of 0.27 ± 0.18 %ID/g (C57 mouse, heart; intravenous, 0.056 MBq, 2 h).

Some of these lines once more:
`CCCC[C@H](NC(=O)CNC(=O)CNC(=O)CN1CCN(CC(=O)O)CCN(CC(=O)O)CCN(CC(=O)O)CC1)C(=O)N[C@H]1CC(=O)NCCCC[C@@H](C(N)=O)NC(=O)[C@H](Cc2c[nH]c3ccccc23)NC(=O)[C@H](CCCNC(=N)N)NC(=O)[C@@H](Cc2ccccc2)NC(=O)[C@H](Cc2c[nH]cn2)NC1=O` [copper-64 labelled] has a tissue uptake of 10.7 ± 1.68 %ID (C57 mouse female B16/F1 melanoma, intestines; intravenous, 0.037 MBq, 2 h).
